Published values gathered from unrelated publications.
Lines come from different studies, so protocols differ.
ache: Acetylcholinesterase (ache, Electrophorus electricus, UniProt O42275)
UniProt O42275, sequence (whole entry, looked up): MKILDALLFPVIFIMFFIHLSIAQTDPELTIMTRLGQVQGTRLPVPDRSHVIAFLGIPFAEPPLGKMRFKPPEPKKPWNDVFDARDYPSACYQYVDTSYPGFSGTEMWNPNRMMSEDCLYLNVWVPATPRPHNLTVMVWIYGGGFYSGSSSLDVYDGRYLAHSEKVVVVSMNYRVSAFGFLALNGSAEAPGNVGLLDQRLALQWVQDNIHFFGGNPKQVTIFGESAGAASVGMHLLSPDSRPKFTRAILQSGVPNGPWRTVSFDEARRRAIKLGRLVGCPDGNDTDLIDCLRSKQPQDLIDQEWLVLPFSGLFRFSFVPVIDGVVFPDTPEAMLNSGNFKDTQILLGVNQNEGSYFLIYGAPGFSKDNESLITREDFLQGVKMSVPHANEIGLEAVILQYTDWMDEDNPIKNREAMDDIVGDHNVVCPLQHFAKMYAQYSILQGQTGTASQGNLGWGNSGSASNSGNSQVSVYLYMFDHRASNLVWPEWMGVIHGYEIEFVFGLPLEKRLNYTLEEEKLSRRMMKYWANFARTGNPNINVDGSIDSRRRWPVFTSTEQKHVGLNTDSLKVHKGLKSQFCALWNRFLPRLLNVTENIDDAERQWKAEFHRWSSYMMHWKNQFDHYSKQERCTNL
UniProt P0DMS8, sequence (whole entry, looked up): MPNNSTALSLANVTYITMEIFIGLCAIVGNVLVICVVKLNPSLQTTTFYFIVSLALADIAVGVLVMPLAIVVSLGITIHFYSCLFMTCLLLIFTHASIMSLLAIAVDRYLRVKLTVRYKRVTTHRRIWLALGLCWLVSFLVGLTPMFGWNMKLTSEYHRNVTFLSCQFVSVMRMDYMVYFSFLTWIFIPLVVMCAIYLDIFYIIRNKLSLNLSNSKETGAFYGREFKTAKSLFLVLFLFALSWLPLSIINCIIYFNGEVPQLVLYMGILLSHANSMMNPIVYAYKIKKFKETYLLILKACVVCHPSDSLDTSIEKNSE
UniProt O13828, sequence (whole entry, looked up): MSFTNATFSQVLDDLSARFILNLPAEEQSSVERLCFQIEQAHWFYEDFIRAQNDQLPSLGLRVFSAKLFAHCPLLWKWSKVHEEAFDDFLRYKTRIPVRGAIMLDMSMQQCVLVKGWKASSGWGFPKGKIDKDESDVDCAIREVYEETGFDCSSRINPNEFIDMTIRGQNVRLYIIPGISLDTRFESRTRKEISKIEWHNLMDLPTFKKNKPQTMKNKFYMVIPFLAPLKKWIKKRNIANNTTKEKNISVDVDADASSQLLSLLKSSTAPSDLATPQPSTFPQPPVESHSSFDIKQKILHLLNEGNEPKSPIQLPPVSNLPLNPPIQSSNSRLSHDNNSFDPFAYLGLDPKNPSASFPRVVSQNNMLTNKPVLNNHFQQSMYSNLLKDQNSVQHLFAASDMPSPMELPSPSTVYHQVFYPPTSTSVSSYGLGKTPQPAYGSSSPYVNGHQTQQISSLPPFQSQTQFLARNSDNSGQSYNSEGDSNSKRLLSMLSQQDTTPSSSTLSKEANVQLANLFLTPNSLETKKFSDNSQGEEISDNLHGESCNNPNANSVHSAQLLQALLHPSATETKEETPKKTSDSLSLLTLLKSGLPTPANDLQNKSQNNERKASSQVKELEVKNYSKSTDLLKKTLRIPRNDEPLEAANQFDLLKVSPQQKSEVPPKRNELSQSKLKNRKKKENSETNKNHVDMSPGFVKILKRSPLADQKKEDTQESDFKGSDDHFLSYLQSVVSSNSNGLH
UniProt O15146, sequence (whole entry, looked up): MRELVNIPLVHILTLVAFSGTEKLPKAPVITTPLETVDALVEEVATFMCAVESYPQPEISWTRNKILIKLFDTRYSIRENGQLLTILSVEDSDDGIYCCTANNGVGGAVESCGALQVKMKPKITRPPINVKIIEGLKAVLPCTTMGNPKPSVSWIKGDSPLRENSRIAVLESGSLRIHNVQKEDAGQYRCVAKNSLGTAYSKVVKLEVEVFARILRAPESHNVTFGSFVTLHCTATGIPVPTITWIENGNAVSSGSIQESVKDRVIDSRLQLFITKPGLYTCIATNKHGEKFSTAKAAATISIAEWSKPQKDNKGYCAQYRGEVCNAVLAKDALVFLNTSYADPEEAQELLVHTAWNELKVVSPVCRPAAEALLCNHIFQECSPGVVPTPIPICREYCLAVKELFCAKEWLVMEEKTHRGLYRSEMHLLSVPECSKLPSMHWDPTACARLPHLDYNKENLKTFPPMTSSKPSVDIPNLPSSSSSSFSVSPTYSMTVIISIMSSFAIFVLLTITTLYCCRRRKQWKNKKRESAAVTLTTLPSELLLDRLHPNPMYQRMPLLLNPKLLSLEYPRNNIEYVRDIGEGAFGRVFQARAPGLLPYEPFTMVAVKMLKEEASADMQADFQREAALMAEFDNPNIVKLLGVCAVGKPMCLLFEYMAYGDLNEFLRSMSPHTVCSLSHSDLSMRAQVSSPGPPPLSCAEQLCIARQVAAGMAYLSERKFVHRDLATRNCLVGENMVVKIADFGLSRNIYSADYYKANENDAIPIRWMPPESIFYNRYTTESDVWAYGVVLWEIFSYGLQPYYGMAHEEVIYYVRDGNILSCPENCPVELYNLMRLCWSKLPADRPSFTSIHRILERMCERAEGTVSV
UniProt Q9UBS5, sequence (whole entry, looked up): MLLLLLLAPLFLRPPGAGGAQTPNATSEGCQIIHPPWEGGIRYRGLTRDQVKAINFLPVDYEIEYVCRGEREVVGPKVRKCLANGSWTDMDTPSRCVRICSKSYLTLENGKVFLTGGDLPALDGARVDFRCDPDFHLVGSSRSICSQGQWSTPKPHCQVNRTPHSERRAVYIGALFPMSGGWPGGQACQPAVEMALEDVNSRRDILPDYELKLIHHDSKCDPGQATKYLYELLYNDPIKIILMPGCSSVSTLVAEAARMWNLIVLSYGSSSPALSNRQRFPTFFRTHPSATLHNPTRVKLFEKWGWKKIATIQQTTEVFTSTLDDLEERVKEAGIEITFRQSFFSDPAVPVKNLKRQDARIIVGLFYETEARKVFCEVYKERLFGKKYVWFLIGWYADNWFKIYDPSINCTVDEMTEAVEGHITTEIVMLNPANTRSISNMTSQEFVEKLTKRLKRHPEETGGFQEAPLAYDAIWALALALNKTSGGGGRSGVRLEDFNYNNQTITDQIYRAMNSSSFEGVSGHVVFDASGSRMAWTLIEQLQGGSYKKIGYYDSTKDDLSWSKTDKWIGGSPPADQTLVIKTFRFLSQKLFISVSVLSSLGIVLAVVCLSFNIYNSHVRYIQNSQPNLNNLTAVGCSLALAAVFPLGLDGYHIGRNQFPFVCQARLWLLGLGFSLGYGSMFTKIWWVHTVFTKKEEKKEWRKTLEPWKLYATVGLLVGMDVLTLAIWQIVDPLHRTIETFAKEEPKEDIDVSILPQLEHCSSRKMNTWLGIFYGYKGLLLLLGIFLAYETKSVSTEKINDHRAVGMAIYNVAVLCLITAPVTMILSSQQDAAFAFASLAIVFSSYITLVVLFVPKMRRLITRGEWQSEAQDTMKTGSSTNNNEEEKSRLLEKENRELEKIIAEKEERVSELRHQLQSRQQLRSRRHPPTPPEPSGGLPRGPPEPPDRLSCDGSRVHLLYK

Structure (SMILES)	target	assay	conditions	inhibition [%]
Cc1ccc2c(n1)c(-c1cccc(S(C)(=O)=O)c1)c(C)n2C/C(F)=C/CN	MAOB (Homo sapiens, UniProt P27338)	ligand displacement	10 µM	23
CS(C)(=O)=Nc1ccc(-c2ccc(-c3nc4cc(O[C@@H]5CO[C@H]6[C@@H]5OC[C@H]6O)[nH]c4cc3F)cc2)cc1	SRC (Homo sapiens, UniProt P12931, T341M)	enzyme activity, inhibitor	10 µM	-9
COc1ccc(F)cc1S(=O)(=O)Nc1cnc2c(c1)C(=O)NCCO2	GABBR1 (Homo sapiens, UniProt Q9UBS5)	radioligand binding, inhibitor	10 µM	7
CN(C)[C@H]1C[C@@]23CC[C@@]4(O2)C(=CC[C@]2(C)[C@@H](c5ccc6ccncc6c5)CC[C@H]24)C=C3[C@@H](O)[C@@H]1O	MARK4 (Homo sapiens, UniProt Q96L34)	ATP probe labelling, inhibitor, KiNativ profiling	0.1 µM	1.4
CCCCNC(=O)c1ccc2nc(CC)c(N(C)Cc3ccc(OC)cc3)n2c1	ache	enzyme activity, inhibitor, Ellman	5 µM	63.4
O=C(O)c1ccccc1/C=N/Nc1nc(-c2ccccc2Cl)cs1	MUSK (Homo sapiens, UniProt O15146)	enzyme activity, inhibitor	1 µM	-2.8
COc1ccc2[nH]cc(CCN)c2c1	ache	enzyme activity, inhibitor, Ellman	20 µM	41.4
CC(C)[C@H]1NC(=O)C[C@H]2/C=C/CCSSC[C@@H](NC1=O)C(=O)N[C@H](Cc1cccc3ccccc13)C(=O)NCC(=O)O2	NUAK1 (Homo sapiens, UniProt O60285)	enzyme activity, inhibitor	10 µM	0.189
C[C@H](NCc1ccc(-c2ccc(C(F)(F)F)cc2)cc1)C(N)=O	ERBB2 (Homo sapiens, UniProt P04626)	cell-free assay, competition with immobilised ligand	1 µM	8
C[n+]1cn([C@@H]2O[C@H](COP(=O)([S-])OP(=O)(O)OP(=O)(O)OP(=O)([S-])OC[C@H]3O[C@@H](n4c[n+](C)c5c(O)nc(N)nc54)[C@H](O)[C@@H]3O)[C@@H](O)[C@H]2O)c2nc(N)nc(O)c21 (stereo partly drawn)	mRNA decapping complex subunit 2, with Dcp1 (dcp2, Schizosaccharomyces pombe, UniProt O13828)	–	200 µM, 0.5 h	59.2
CN[C@@H]1[C@H](O)[C@H](NC)[C@H]2O[C@]3(O)[C@H](O[C@@H]2[C@H]1O)O[C@H](C)C[C@H]3NC(=O)Cc1cc(Cl)ccn1	ADORA3 (Homo sapiens, UniProt P0DMS8)	ligand displacement, radioligand	10 µM	9
CCOC(=O)[C@](CC)(CCCSCCOCCOCCNC(=O)c1ccc(-c2c3ccc(=N)c(S(=O)(=O)O)c-3oc3c(S(=O)(=O)O)c(N)ccc23)c(C(=O)O)c1)NC(=O)c1ccc(C2CC2)c(Cc2ccc(F)cc2)n1	PCP site (NMDA receptor)	specific binding, antagonist radioligand binding	10 µM	4

Repeated from above:
Structure (SMILES)	target	assay	conditions	inhibition [%]
CCCCNC(=O)c1ccc2nc(CC)c(N(C)Cc3ccc(OC)cc3)n2c1	ache	enzyme activity, inhibitor, Ellman	5 µM	63.4
